Earlier results as cited in several papers.
Each numbered part shows a few of the values that one paper quotes. ± gives the spread as reported.
Sequence of UniProt C7FF04 (whole entry, looked up): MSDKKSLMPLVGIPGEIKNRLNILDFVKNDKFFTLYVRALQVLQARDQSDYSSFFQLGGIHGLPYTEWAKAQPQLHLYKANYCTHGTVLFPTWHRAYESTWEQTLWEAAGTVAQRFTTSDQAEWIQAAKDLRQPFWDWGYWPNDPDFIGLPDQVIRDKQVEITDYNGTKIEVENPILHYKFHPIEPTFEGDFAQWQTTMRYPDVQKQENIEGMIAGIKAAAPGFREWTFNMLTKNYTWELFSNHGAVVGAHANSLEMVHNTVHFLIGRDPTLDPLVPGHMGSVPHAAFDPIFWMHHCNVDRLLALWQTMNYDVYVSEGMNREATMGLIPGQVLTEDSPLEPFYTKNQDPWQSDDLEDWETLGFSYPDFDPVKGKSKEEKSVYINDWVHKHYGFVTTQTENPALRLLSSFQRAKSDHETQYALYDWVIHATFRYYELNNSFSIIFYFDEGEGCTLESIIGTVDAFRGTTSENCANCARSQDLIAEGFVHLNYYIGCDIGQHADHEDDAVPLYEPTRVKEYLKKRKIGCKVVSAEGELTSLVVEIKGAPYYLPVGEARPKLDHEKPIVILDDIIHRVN

Series 1
Target: COX-2
`O=C(O)COc1ccc(Br)cc1/C=N/NC(=O)CNc1ccc(Cl)cc1` gave an IC50 of 90 ± 10 nM.
With `O=C(O)COc1ccc(Br)cc1/C=N/NC(=O)CNc1ccccc1` the IC50 was 80 ± 10 nM.
The IC50 of `Cc1ccc(NCC(=O)N/N=C/c2cc(Br)ccc2OCC(=O)O)cc1` is reported as 60 ± 10 nM.
`Cc1ccc(C(=O)N/N=C/c2cc(Br)ccc2OCC(=O)O)cc1` gave an IC50 of 70 ± 10 nM.
The IC50 of `O=C(O)COc1ccccc1/C=N/NC(=O)CNc1ccc(Cl)cc1` is reported as 70 ± 10 nM.

Further values, each from its own experiment
Under “total α-tubulin level”, `CN(C)CCCOc1cc(F)c(-c2c(Cl)nc3ncnn3c2NCC2(C)N=N2)c(F)c1` is recorded as 0.19 ± 0.02 (HEK293; 10 µM, 4 h, unit not given; reference: vehicle (DMSO)).
`CC(C)C[C@H](NC(=O)OCc1ccccc1)C(=O)N[C@@H](C[C@@H]1CCNC1=O)C(O)S(=O)(=O)O` (stereo partly shown) has an IC50 of 490 ± 70 nM (Replicase polyprotein 1ab, 3C-like proteinase (Feline coronavirus, UniProt Q98VG9); enzyme activity, inhibitor, FRET).
`CC(O)CSc1nnc(-c2cc3ccccc3o2)n1-c1ccccc1` (stereo not shown) gave an IC50 of 4520 ± 90 nM (PPO3 (Agaricus bisporus, UniProt C7FF04); enzyme activity, inhibitor).
With `CC(C)(C)C(=O)NC(C(=O)NO)c1ccc(-c2cc(F)c(F)c(F)c2)cc1` (stereo not shown) the Ki was 78 nM (Plasmodium falciparum aminopeptidase M1; inhibitor).
`C[C@@H](Nc1c(-c2c(F)cc(C#CCCO)cc2F)c(Cl)nc2ncnn12)C(C)(C)C` — result for “total α-tubulin level”: 0.98 ± 0.21 (HEK293; 10 µM, 4 h, unit not given; reference: vehicle (DMSO)).

Some of these lines once more (further values, each from its own experiment):
`C[C@@H](Nc1c(-c2c(F)cc(C#CCCO)cc2F)c(Cl)nc2ncnn12)C(C)(C)C` — result for “total α-tubulin level”: 0.98 ± 0.21 (HEK293; 10 µM, 4 h, unit not given; reference: vehicle (DMSO)).
